# Measurements pooled from the literature.
# A part holds a random share of what one study measured.

# Set 1 — method: protein binding microarray; molecule type: double-stranded DNA, one strand shown; matrix: in vitro; concentration: not given; baseline: not given; direction: higher = stronger binding
# Target: Histone acetyltransferase KAT6A, winged helix 1, GST fusion (KAT6A, Homo sapiens, UniProt Q92794, residues 1-85)
# Setting: 8-mer, flanks averaged, mean of 2 arrays, mostly near background
# Construct (chain): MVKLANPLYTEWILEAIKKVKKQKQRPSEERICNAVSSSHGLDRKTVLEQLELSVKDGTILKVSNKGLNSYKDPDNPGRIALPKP
Strand,E-score
CCGCCCGA,0.331
ATCGAATC,0.0221
CGCCGTAG,0.427
AATTGGTG,-0.256
CATGATCC,0.0392
AAAATGGA,-0.079
CAGCCCAG,-0.217
GAGGACTC,-0.194
GACTCTAA,-0.183
TAATGCCA,-0.129
GGCATAAC,-0.0291
AGCCGCGA,0.379
GTCTATTA,-0.0422
ATCGACTA,-0.211
GAAACGAC,-0.0598
AGCACAAA,-0.213
AAAATACT,-0.054
CATCCTTC,-0.0283
CGGAAAGC,0.245
AATAGCCT,-0.0907
ACTTGGAC,0.0268
ATGCCATA,-0.141
AAGCACAG,-0.0902
ACCCCAAT,-0.238
TAATAACA,-0.0157

# Set 2 — method: EMSA with sequencing; molecule type: double-stranded DNA, one strand shown; matrix: in vitro; concentration: 10 and 20 nM; baseline: negative control set to 0; direction: higher = stronger binding
# Target: Hepatocyte nuclear factor 3-alpha (Foxa1, Mus musculus, UniProt P35582, residues 1-468, full length assumed)
# Chain of UniProt P35582 (whole entry, looked up): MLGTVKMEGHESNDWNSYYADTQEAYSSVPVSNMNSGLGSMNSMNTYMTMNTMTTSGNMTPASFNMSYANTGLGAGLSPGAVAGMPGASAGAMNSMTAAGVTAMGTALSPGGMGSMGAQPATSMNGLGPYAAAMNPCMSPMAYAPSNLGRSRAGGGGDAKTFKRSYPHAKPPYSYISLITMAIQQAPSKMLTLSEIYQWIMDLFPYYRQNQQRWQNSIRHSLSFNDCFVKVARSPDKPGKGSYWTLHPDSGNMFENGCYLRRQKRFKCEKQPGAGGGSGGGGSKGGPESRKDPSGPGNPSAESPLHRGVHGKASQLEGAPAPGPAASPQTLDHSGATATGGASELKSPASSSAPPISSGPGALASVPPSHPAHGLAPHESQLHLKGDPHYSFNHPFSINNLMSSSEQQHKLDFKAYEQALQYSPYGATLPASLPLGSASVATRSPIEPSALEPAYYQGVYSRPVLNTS
# Setting: whole designed probe, mean of two concentrations, ends assumed
# All sequences stand within: GTGAGCGGTGCCCATTGATGGGGAAC … TTTCACTGGGATCGTGGGGAC
Strand,normalised bound fraction
ATCTTCCCCCTCTTCCTTGCCCCACCAGCTCACCTTCCCGGGTTATTTGCACAAAGGAAAATAAATAAAGCCGGCATTCGTTAACGCAGTTCTGGCGCAAACTGCTGTTTGCTCTGGATCTAACATGGTCCTTTGGCGAGGCGTGGCTCCGGGAGAGCAAAGCACCGTGTCAGGGCCATGATCCGGGGTGGCC,0.37 ratio
TCGGCCAGCCTGGCTTCTGCGCCCCGCCAGGAGGTCGCGGAGCGGAGCGCGGCCAGGAATGACTCATTCAGTGACAGCTCCCCCCACGCTGTTTGTTTATTCATGTCACATTCTCTCCACACACTGGCTCTTCTTTCTTTCGGGAGGAGGGGAGAAAGGAGCGGGAGGGCGGGCGGGCAGGGGAGAGGCAGGC,0.393 ratio
AAGCAATACATGTTGTCAAAATACAGTGGCAACGGGAACCGAATAGATGTGAAGCAATGAGTGAGCCACCAATTACTAAAATATGTGGTCCTGAGTAATCTAGAGCTTAACGGAGAGATGAGAGGCGCCTGTGAAGTTGGAAAAGGTGGGCATAAGAATGTGTGCTAACTAGACCTGAAGTCTAGGCCGGCTG,-0.0331 ratio
TTACTGACATGAAGAGCGTTGCTATAGTTTTAAGAGATTTTTTTTTTCTGATTTTAAACAAAAACTAGAATAAAAATTTTCACACTTTCAAAGTAAACAGAAAGGGGGGGATTGTGACATTTAGCACATGCAGTATGAGAATTATTGGTAAAAGAAAAGCCAAAAAAGGTTTACAACTGTCCCACGACAAAAA,0.324 ratio
ATATCATAATTAATAGGACTTAGTCTCCATTAACCCCCAAAATAACATCAAAATAGTCTCCCAAAAATATAATTGATTTTTATGAGAACTTAATGTAATCTTGCAACAAGAGATCCACTCTCAACCCTTCATGTAAACACATCTGTTGCTAATCATACGTTCAGAATCCCTTGCTTAGAGTATAGGCATAGTC,0.0383 ratio

# Set 3 — method: universal PBM; molecule type: double-stranded DNA, one strand shown; matrix: in vitro; concentration: 600 nM; direction: higher = stronger binding
# Target: Sal-like protein 4, full length isoform A (SALL4, Homo sapiens, UniProt Q9UJQ4, residues 1-1053)
# Chain of UniProt Q9UJQ4 (whole entry, looked up): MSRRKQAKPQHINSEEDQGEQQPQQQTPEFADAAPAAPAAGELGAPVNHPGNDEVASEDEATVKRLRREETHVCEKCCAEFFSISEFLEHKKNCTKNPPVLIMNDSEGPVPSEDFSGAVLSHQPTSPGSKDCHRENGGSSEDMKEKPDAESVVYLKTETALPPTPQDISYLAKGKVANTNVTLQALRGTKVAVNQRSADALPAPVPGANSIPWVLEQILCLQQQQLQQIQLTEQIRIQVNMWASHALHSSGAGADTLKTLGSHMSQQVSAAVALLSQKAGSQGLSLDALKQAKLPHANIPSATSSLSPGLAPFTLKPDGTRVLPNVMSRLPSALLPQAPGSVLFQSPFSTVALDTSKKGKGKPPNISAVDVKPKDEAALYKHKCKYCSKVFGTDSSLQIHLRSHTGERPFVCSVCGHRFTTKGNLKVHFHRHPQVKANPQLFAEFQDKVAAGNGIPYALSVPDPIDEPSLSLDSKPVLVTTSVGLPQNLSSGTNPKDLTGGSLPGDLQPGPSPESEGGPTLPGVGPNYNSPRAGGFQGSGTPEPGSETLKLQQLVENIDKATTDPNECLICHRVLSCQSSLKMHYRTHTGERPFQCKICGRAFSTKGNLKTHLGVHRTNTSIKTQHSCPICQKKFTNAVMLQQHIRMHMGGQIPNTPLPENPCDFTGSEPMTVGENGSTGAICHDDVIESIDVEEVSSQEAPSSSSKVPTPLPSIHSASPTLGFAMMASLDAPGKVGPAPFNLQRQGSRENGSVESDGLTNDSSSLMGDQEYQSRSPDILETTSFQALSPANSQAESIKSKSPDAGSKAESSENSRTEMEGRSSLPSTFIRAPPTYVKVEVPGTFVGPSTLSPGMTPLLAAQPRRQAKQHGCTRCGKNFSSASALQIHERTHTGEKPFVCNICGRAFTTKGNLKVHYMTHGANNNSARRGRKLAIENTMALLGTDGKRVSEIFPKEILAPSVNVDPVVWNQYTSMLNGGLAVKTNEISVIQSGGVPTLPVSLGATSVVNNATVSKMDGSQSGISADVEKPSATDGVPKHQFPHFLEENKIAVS
# Setting: 8-mer, flanks averaged, mean of replicates
Strand,E-score
CGGAACAG,-0.223
GTAATAGA,0.22
GACAGAAC,-0.0146
GGATCGGA,-0.244
ATCCCTAA,-0.102
AGGCTACC,-0.216
GTATGGGA,-0.0759
CTTTACCA,0.117
GGTTCAAC,-0.257
CCAACCCA,-0.156
ACCGCCAT,-0.142
AGCTTCCC,-0.216
GTAAGTTA,0.192
ACGCGGGA,-0.126
AATAATGG,0.247
ACGGGGCA,-0.284
CTCGTGTC,-0.168
AGGTGCGA,-0.169
CCCAGCAG,-0.185
CCCTATAC,-0.0115
CCTTTGTC,-0.00142
GCGACAAA,0.0137
CACGCTGA,-0.084
ATTCCGAG,-0.0135
ATGTCGCC,-0.0284

# Set 4 — method: RNA Bind-n-Seq; molecule type: RNA; matrix: in vitro; concentration: not given; baseline: input RNA pool; direction: higher = stronger binding
# Target: RING finger protein unkempt homolog, zinc fingers 1-6, GST-SBP tag (UNK, Homo sapiens, UniProt Q9C0B0, residues 30-357)
# Chain of UniProt Q9C0B0 (30-357, looked up): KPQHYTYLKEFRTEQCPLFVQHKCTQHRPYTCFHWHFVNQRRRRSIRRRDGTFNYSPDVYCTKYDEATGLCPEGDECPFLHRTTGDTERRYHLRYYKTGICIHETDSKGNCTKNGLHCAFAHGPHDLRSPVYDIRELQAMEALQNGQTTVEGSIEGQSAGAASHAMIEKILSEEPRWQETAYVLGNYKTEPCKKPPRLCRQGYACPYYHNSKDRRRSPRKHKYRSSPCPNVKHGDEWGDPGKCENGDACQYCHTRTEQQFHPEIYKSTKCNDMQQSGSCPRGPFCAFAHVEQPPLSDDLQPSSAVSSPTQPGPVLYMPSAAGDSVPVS
# Setting: RNA with constant flanks, human and mouse sites, ends assumed
# All sequences stand within: GGGAGUUCUACAGUCCGACGAUC … CAACAGAGGAUUGAGCAUCA
Strand,bound/input enrichment [ratio]
GCUUGCUUGAACGGGUCUCCUCAGCGGCGGCUGGAGUCGAAUUUGGAAAUACUGCACAUCUAGUUGGCUCCAAAUUGUAAACCACAGGAUGAGUAUUCAGUGGGCAUGAGAGAUUGAGAA,0.207
GUUCGGCUCUGGGAUCAUGCCACAAUGACAGAAGUGAAAUCUCUGAAUUUUAAUAUGUCUGUUAGCAGCAUGGAGUAUAUUCCUGAAGGAGAGAUUUUGGUUAUUACUUAUGGACGAUCU,0.3
GCACCCAGGUCCUAUAGAAUAGCACCCAGGCCAUAUAGGUUAGCACCUAGACCCCUGAUGUUAGCAUCUAGACGUUCUAUGAUGAUGUCCUAUGCUGCAGAACGUUCCAUGAUGUCAUCU,0.395
AUAAUAAAAGCUUCCAGCAAAGAUGCCAUCAGGCUUUUGGAUUCCGUGCCUCCCACUGCCAUUAGUCACUUCAAACAAUCAGCUGAGAAGCUGAUAGAGGAGAAGGGAGCUGUGGAAGCU,0.162
ACCAGAUUCUGCCUCAUCUGUAACUAUGUCAGUCGAAUAAUUGAACCCCUCACUUCUAGAUGUUCAAAAUUCCGCUUCAAGCCUCUGUCAGAUAAGAUUCAACAGGAGCGAUUACUGGAU,1.47
AAGUCAAUGCAGUCCCACUUACUCAAGCUGCAGCUGAAAGGCUAUCCCAGUACGUGUUGGUAGUUCCUGAGAGAGUUAUAGCUGGUGUUGCCUUGUGGUCUACCCCUUGUUUCAGGCCUC,0.104
ACUGUGAAGGAAGAAAAAAGUUGGCAUUUCUUGGUCCUCCGUUCAUAACACAAAGCAGAGUAGUAUUUUUAUAUUUAAAUGUUAAAAACAAAAAAGUUAUAUAUAUAUGGAUGUGUGGAU,4.48
GUAAGAGAGUUCAUGAAGGAUACUGAUUCCAUAAAUUUAUAUAAGAAUAUGAGAGAAACAUUAGUUUAUCUUACUCAUCUGGAUUAUGUAGAUACGGAAAUAAUAAUGACUAAGAAACUU,0.271

# A few entries again (set 3):
Strand,E-score
AATAATGG,0.247
AGCTTCCC,-0.216
CTCGTGTC,-0.168
CCTTTGTC,-0.00142
GGATCGGA,-0.244
CGGAACAG,-0.223
ACGGGGCA,-0.284
ATTCCGAG,-0.0135
AGGCTACC,-0.216
GGTTCAAC,-0.257
